Experimental data gathered from unrelated publications.
Each numbered part is a random draw from the data of one study; scales do not carry over between parts. Substitutions count along the parent as printed.

Series 1
Target: RING finger protein unkempt homolog, zinc fingers 1-6, GST-SBP tag (UNK, Homo sapiens, UniProt Q9C0B0, residues 30-357)
Method: RNA Bind-n-Seq
Molecule type: RNA
Sample: in vitro
Tested at: not given
Notes: RNA with constant flanks, ends assumed
Reference: input RNA pool
Direction: higher = stronger binding
Endpoint: bound/input enrichment
Constant ends, left off below: GGGAGUUCUACAGUCCGACGAUC … CAACAGAGGAUUGAGCAUCA
Residues (chain): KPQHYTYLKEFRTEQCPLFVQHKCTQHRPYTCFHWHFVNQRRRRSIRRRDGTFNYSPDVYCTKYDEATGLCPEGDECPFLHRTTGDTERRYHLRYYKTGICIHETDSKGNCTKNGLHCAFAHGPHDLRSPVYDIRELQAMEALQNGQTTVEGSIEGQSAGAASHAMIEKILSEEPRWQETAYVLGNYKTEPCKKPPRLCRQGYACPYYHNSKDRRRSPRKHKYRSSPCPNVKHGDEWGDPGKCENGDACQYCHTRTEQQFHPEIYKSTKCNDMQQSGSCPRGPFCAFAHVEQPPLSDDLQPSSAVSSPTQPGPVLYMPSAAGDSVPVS
CAGCCUGGGGACACAGCCAAGGCUGUGGUGGCACAAGCUGUCCGUCAUCUCCCGCAGUCUGUCCGGAUUUACAUCAGAGCAGCAGAGCUAGAAACAGACAUUCGAGCAAAGAAGCGUGUU: 0.137 ratio
UUAAACUAAAUGGAACCAUGUGCUAAUUUUACAGUGACUGACCUGUACUGAUUACCACUGCCGUUUGGUAUUUCCCUUUACUUUGGUGGCCUGCUUCCCUCAUGCCCUGGAGUACAGCUC: 0.199 ratio
UGAGCUGCCGAAGCCGCCGUCCUGCUCUCCCGCGUGGGCUUCUCUAAUUCCAUUGUUUUUUUCCGAUUCUCUCGGGCCUAGCCGUCCUUGGAACCCGAUAUUCGGGCUGGGCGGUUCCGC: 0.279 ratio
GAAUCUGUACUUGUAGAGUGGCGCGAUGCAACAGAGAAGAAUAAGGAGUUUCUCCCGCGUUCCGGAGCUACUAUUGAACAUAUCUCAGUCUCGCCUGCAGGAGAUUUAUUCUGCACUUCU: 0.18 ratio
GCCAUUGGUCUUAUGGGUUAUAGGUUGAGUCCUCAAACAUUAACUACUAUUGUUAAACGUUACCGCAAGAAUGGCAGAAUUUUCUUUGAUGAUUAUGUUGCUUGCUGUGUGAAGCUUCGA: 0.12 ratio
CUUCCAUUUAUUGUUUCUCAUAGAUUGUCUAAUACCUUGAGCUUAGAUAUUCAUGAAAAUCACCGUUUUGCACUUCUAGGGAAGAAGAAAUCAAGCAAUUUGACAUUACCACCCAAAUAU: 0.312 ratio
AGCUCUAGGCUUUUCAGAUGUGGAUCAUACCUAUGCUCAAAGAACUCAGCUCUUUGACACCUCCGUAAAUUUCUUUCCUGACAGCAUGACUCCUCCUAAAGGCAACCUGGUAGACCUGAU: 0.294 ratio
GACUUUGGGACUGGUCCUCGCAACGCAGCCUUCUAUAGCCCUCAUGGACAUAUAUCCGUGCUGGCUGGAUUUGGAAAUCUUCGAGGACAAAUGGAAGUAUGGGAUGUUAAAAACUACAAG: 0.243 ratio
GGCUGCAGAGUCAUUCAGCGUAUCUUAGAGCACUGCACGGCAGAGCAGACCUUACCCAUCUCCGAAGAACUUCACCAACACACAGAACAGUUGGUACAGGAUCAGUAUGGCAAUUAUGUU: 0.385 ratio
AACAGAAGAAAAGUAAUGGACUCUGAUGAAGAUGACGAUUAUUGAACUACAAGUGCUCACAGACCCGAACUUAACGGAACAAGUCUAGGACAGAAGUUAAGAUCUGAUUAUUUACUUUGU: 0.0527 ratio
GAAUUGCCAGAGAGGGCAACAAAUCCAUUUGUAAAUAGAGAGUCAGCAGAGUUUUCAGUAUCCGAAUACUCAGAAAUGGGAUCAUCUUUCAAUGGCUCCCCAAAAGGAGAGUCAGCCAUG: 0.228 ratio

Series 2
Target: Histone acetyltransferase KAT6A, winged helix 2, GST fusion (KAT6A, Homo sapiens, UniProt Q92794, residues 85-181)
Method: protein binding microarray
Molecule type: double-stranded DNA, one strand shown
Sample: in vitro
Tested at: not given
Notes: 8-mer, flanks averaged, mean of 2 arrays, mostly near background
Reference: not given
Direction: higher = stronger binding
Endpoint: E-score
Construct (chain): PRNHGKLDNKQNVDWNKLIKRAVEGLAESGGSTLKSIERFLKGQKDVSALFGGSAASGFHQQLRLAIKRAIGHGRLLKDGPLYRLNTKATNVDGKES
CTTTAGCC: 0.156
CGTAAGTA: -0.216
GGAAACAC: -0.013
GACTAGAC: -0.121
CCTGCGCC: 0.0872
ACTTAGCG: -0.059
TGGCATAA: 0.134
TGCACAAA: 0.00719
ATATCTGG: -0.124
AATAGCCA: 0.0418
TCTTGAAA: 0.113
AGAAAACA: 0.0464
GAGTAGAC: 0.0112
GAGTACCA: -0.0608
CTTTATTC: -0.0199
AGAAGCCC: 0.00528
CAGCGGCG: 0.295
CAAAGTCC: -0.0103
GCGATTGA: -0.0337
GCTGCGCA: 0.213
AGGCGAAC: 0.1
CCTGACCA: 0.0662
CTATTGTA: 0.0303
CTGGAACC: -0.0852
GAACCAAA: 0.0827

Series 3
Target: CCNA2, cyclin fold, Cln2 fusion (human)
Method: yeast growth competition, sequencing
Sample: yeast
Notes: strong parent motif
Reference: not given
Direction: higher = stronger binding
Endpoint: normalised enrichment score
Parent: CDAN1 docking peptide (human); RGARSQLFPPTEA
RGARSALFPPTEA [Q6A]: 0.587
RGARSQLFPPAEA [T11A]: 1.95
AGARSQLFPPTEA [R1A]: 1.28
RGARSQAFPPTEA [L7A]: 0.303
RGARSQLFPPTAA [E12A]: 2.14

Series 4
Target: Interferon regulatory factor 7, full length, phosphomimetic (IRF7, Homo sapiens, UniProt Q92985, residues 1-503, S101K/S471D/S472D/S475D/S476D/S477D/S483D/S484D/S487D)
Method: protein-binding microarray
Molecule type: double-stranded DNA, one strand shown
Sample: in vitro
Tested at: 250 nM
Notes: 60-bp whole probe
Added: salmon DNA 0.4 mg/ml
Reference: random background probes
Direction: higher = stronger binding
Endpoint: log fluorescence
Constant ends, left off below: GCCTAGCAC … GTCTTGATTCGCTTGACGCTGCTG
Construct (chain): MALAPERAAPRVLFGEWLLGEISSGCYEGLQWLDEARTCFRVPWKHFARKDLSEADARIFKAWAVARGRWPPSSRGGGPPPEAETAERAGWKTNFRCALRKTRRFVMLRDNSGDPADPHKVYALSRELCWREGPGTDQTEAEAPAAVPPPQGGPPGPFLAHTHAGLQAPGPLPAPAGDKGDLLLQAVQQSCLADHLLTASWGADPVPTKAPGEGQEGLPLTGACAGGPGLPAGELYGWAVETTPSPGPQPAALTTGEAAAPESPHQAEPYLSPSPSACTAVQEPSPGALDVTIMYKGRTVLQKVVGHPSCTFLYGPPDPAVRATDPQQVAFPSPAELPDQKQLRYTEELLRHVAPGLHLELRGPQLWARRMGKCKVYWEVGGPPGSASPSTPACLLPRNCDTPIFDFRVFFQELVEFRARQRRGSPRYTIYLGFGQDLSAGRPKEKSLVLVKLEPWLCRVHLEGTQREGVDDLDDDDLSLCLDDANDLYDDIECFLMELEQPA
TCAATATTGAGACTCATACTGTGCTAG: 0.582 z-score
GACGATCTCAGTTTCGACACGTGCTAG: 2.48 z-score
GACGATATCCGGTTTCGAGACGTGCTA: 4.06 z-score
AACACAAACCCGCTGGAGTTGTGCTAG: -0.32 z-score
GACGGACAGGACACTGGGGACGTGCTA: -0.608 z-score
GACGGTATCGGTCTTGGGACGTGCTAG: 0.176 z-score
GACGGTTTCAGACTGGGGACGTGCTAG: 0.614 z-score
CACGGTATCCTTATCCTGACGTGCTAG: 0.259 z-score
TTAGATTTCGGGACTGGGTTAGTGCTA: 0.399 z-score
GACGGAATCGGACTGGGGACGTGCTAG: -0.4 z-score
CTTTCTTTAACATATTCTCTTGTGCTA: 1.55 z-score
TTAGGAATGCTTCTCCTTTAGTGCTAG: 0.254 z-score
AAAAATGATTGGTTGAACATGTGCTAG: -0.399 z-score
GACGATCTCAGAGTGGAGACGTGCTAG: -0.242 z-score
GATGAAGATGTAGAACTTTTGTGCTAG: -0.706 z-score
TCAGCTTTCTTTATGTAACTGTGCTAG: 0.361 z-score
GCTCCTTCCCCTCTAGGTCTGTGCTAG: 0.67 z-score
GACGATCTCAGTACCGAGACGTGCTAG: -0.0878 z-score
GACGGTTTGCTTCTCCTGACGTGCTAG: 0.209 z-score
CATTGCCTATTTTTCCCCTGGTGCTAG: 1.27 z-score
GACGGTTTGCTTATCCTGACGTGCTAG: -0.00126 z-score
GACGGTTTCCATTCCCTGACGTGCTAG: 7.52 z-score
TTAGGTTTCGACACTGTGTTAGTGCTA: 3.71 z-score

Repeated from above (series 4):
GACGATATCCGGTTTCGAGACGTGCTA: 4.06 z-score
TCAGCTTTCTTTATGTAACTGTGCTAG: 0.361 z-score
GACGGTTTGCTTATCCTGACGTGCTAG: -0.00126 z-score
GACGGAATCGGACTGGGGACGTGCTAG: -0.4 z-score
GACGGTATCGGTCTTGGGACGTGCTAG: 0.176 z-score
TCAATATTGAGACTCATACTGTGCTAG: 0.582 z-score
TTAGATTTCGGGACTGGGTTAGTGCTA: 0.399 z-score
GACGATCTCAGTTTCGACACGTGCTAG: 2.48 z-score
